Results of several laboratories.
Parts stem from different laboratories: compare values within a part only.
Sequence of UniProt Q13554 (whole entry, looked up): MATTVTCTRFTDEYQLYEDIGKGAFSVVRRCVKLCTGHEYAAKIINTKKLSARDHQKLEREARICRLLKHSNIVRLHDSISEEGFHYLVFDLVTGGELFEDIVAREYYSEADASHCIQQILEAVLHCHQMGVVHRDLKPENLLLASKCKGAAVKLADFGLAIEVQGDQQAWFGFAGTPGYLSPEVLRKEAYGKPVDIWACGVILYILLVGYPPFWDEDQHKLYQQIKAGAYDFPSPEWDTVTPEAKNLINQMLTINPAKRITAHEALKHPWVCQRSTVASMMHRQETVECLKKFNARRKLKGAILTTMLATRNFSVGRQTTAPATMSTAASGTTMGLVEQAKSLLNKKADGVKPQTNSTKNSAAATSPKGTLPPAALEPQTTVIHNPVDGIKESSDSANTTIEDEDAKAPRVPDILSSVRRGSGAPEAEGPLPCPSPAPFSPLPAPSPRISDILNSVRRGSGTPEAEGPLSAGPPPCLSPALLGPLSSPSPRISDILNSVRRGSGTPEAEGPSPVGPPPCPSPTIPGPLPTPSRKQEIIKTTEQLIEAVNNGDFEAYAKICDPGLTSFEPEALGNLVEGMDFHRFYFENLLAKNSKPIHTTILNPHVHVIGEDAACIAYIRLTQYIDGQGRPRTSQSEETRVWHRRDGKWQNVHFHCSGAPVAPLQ
Sequence of UniProt Q8TDX7 (whole entry, looked up): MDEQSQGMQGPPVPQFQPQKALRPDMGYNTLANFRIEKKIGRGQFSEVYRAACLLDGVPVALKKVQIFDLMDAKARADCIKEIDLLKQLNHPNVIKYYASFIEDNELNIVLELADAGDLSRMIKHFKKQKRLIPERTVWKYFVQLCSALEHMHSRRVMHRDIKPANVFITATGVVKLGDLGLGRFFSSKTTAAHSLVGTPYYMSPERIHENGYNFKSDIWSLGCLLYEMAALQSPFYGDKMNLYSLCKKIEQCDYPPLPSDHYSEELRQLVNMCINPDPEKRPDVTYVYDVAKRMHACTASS
Sequence of UniProt P16591 (whole entry, looked up): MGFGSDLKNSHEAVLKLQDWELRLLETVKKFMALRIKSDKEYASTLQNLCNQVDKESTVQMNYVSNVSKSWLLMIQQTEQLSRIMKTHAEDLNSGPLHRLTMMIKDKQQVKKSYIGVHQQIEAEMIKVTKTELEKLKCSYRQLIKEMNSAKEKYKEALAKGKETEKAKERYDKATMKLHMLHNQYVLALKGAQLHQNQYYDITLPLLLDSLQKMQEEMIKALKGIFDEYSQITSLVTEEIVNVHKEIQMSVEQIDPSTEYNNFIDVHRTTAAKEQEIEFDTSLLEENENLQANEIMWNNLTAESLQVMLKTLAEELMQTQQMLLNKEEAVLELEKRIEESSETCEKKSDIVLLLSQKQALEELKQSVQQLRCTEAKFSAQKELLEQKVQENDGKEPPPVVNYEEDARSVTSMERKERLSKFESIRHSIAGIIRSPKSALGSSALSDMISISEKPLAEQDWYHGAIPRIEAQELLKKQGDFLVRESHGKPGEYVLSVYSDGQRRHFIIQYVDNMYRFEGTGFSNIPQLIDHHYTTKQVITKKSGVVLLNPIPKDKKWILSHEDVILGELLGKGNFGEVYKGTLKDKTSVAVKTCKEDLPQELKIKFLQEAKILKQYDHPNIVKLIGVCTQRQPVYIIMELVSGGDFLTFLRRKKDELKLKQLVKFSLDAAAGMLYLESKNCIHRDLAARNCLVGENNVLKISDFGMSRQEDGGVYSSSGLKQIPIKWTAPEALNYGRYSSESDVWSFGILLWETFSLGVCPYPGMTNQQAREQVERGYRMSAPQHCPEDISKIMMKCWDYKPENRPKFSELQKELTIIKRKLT
Sequence of UniProt Q9HC98 (whole entry, looked up): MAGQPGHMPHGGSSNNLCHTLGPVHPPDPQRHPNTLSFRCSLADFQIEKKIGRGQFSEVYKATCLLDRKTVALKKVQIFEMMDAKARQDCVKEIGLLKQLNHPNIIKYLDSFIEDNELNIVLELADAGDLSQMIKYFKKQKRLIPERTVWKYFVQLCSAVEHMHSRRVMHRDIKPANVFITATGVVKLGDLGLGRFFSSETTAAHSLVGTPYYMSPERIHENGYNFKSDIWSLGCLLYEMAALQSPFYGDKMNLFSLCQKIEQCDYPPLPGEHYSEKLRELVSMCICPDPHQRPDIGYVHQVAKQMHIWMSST
Sequence of UniProt Q16513 (whole entry, looked up): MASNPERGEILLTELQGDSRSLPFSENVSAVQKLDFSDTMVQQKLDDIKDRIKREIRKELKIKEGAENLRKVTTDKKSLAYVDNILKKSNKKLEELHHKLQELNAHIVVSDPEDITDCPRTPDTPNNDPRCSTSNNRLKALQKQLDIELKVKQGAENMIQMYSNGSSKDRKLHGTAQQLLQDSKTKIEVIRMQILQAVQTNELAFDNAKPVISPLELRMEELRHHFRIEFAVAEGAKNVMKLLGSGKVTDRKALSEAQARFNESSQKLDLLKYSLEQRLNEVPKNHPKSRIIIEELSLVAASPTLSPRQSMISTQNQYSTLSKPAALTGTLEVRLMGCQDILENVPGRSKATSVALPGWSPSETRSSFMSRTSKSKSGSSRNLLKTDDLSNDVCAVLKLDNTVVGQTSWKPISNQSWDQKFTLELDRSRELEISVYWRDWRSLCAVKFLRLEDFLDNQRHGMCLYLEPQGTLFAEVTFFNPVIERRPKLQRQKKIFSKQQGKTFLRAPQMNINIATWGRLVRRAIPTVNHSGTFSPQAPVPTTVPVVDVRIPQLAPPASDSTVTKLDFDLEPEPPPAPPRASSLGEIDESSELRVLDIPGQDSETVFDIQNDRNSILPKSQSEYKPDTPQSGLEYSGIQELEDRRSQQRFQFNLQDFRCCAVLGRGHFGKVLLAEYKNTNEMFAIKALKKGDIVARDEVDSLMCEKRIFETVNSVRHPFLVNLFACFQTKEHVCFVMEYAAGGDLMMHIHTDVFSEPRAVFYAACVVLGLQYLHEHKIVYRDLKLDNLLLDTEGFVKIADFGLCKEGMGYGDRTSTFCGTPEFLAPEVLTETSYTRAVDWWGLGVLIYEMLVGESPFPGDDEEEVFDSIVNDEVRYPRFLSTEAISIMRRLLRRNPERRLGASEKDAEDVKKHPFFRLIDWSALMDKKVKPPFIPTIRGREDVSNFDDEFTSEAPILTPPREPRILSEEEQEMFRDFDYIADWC
Sequence of UniProt Q14164 (whole entry, looked up): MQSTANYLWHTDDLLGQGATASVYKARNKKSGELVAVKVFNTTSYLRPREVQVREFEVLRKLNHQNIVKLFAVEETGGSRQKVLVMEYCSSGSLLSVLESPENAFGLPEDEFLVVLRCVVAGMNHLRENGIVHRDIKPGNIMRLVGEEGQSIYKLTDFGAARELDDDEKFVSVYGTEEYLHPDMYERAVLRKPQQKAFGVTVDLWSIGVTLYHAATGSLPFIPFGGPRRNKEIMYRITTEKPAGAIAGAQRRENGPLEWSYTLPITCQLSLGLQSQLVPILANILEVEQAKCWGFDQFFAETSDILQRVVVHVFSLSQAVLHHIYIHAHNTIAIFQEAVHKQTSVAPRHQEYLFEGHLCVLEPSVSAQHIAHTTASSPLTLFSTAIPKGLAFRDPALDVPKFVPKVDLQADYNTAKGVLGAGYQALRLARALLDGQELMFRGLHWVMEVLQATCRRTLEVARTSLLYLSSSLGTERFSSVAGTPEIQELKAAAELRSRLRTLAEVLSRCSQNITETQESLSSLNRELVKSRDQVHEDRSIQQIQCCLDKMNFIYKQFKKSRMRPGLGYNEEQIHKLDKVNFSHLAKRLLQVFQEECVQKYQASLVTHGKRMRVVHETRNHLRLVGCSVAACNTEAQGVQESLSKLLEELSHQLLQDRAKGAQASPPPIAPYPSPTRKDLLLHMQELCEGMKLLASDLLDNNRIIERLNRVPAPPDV

Study 1 — action: antagonist; endpoint: IC50
Target: Beta-1 adrenergic receptor (ADRB1, Homo sapiens, UniProt P08588)
Sequence of UniProt P08588 (whole entry, looked up): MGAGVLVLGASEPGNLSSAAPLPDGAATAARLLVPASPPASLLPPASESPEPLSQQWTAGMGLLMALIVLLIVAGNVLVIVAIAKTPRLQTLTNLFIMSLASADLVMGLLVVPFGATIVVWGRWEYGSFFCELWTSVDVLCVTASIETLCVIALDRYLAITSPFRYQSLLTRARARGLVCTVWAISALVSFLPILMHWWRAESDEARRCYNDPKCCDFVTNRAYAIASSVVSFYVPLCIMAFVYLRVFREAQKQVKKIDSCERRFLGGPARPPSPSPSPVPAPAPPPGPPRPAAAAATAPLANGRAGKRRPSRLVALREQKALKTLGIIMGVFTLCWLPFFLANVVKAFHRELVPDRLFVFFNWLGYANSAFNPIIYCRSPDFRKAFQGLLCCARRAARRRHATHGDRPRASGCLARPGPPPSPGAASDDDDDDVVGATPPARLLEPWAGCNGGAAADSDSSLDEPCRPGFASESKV
Cc1ccc(C(=O)Nc2ccc(Oc3cc4cnn(C)c4cc3-c3cn[nH]c3)c(F)c2)c(=O)n1-c1ccc(F)cc1: ≥ 100 µM
Fc1ccc(-c2nnc3ccc(N4CCN(c5ccccn5)CC4)nn23)nc1: ≥ 100 µM
O=C(Cc1ccccc1)Nc1ccc([C@@H](O)[C@H]2COCC(=O)N2Cc2ccccc2)cc1: ≥ 100 µM

Study 2 — technique: RNA Bind-n-Seq; molecule type: RNA; sample: in vitro; concentration: 1 µM; notes: whole 134-nt RNA, ends assumed; with: 150 mM KCl; relative to: input library; reading: higher = stronger binding; endpoint: log2 enrichment
Target: Ras GTPase-activating protein-binding protein 1, C-terminal RGG region (G3BP1, Homo sapiens, UniProt Q13283)
Sequence of UniProt Q13283 (whole entry, looked up): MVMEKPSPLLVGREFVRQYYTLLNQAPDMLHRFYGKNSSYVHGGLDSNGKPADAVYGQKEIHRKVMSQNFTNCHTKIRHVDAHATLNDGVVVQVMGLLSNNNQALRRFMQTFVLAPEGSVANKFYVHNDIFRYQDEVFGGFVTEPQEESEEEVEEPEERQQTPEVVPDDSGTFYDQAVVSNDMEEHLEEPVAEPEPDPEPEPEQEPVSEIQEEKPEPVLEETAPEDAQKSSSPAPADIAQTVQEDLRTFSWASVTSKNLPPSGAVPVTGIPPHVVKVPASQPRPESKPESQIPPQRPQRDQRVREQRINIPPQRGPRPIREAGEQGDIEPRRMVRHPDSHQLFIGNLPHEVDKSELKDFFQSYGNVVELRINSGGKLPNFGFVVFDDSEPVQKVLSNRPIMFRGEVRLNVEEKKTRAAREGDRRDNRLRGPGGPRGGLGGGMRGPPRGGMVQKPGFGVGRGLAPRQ
Constant ends, left off below: GGGAGUUCUACAGUCCGACGAUC … UGGAAUUCUCGGGUGUCAAGG
GUCCUGUGCUACACAUCGUAUGUACCGAAUCGGAAAAAAGGAAAAAAGGGAAAAAAGGAAAGUAUUAUGUUACGCCGUUCGGAUCUGCAC: -1.48
AAGUCCUGUGCUACACAUCGUAUGUACCGAAUCGGGUUUUUGGGUUUGGGAAAGGGAAAGUAUUAUGUUACGCCGUUCGGAUCUGCACUU: 0.901
UCUAGAUACAGAUGCACGAUUUGGCCAUGGAUCCGACUACUCUCGCCAACAGAACAGAUUUAAUGACUUUGAUCACCGAGAGAGGGGCAG: -1.03
GUCCUGUGCUACACAUCGUAUGUACCGAAUCAAACCCCCCCAAAUUUAAAUUUUUAAAAAAGUAUUAUGUUACGCCGUUCGGAUCUGCAC: -0.235
UCCUGUGCUACACAUCGUAUGUACCGAAUCGGGUUUUUGGGUUUUUGGGAAAAAAAGGGAAAGUAUUAUGUUACGCCGUUCGGAUCUGCA: -0.674
GGUAAACGCCCUGCAGAAGAUAUGGAAGAGGAACAAGCAUUUAAAAGAUCUAGAAACACUGAUGAGAUGGUUGAAUUACGCAUUCUGCUU: -1.07
UAUGAGGAUGAGUUGGUGCCCCUUUUUGAGAAGGCCGGACCCAUUUGGGAUCUACGUCUUAUGAUGGAUCCACUGUCCGGUCAGAAUAGA: -0.814
UCCUCAAGUCCUGUGCUACACAUCGUAUGUACCGAAUCGGAGGAGGGGAGGAAAGUAUUAUGUUACGCCGUUCGGAUCUGCACUUCCAGC: -1.36

Study 3 — cell line: HaCaT; concentration: 100 µM; time: 60 h; endpoint: viability
C=C1[C@H](CO)[C@@H](O)C[C@@H]1n1cnc2c(=O)[nH]c(N)nc21: 86%
CC(C)(Oc1ccc(CCNC(=O)c2ccc(Cl)cc2)cc1)C(=O)O: 124%
OC(CCCN1CCCCC1)(c1ccccc1)c1ccccc1: 125%

Study 4 — cell line: mouse MPNST tumor cells; technique: high-content immunofluorescence imaging; refers to: nuclear SOX9; concentration: 10 µM; time: 12 h; notes: mean of 2 replicates; relative to: DMSO control; reading: higher = more nuclear SOX9; endpoint: nuclear SOX9 intensity
CC(C)COCC(CN(Cc1ccccc1)c1ccccc1)N1CCCC1 (stereo not drawn): 205 % of DMSO
COCCOCOc1cc2ccc(-c3ccc(C(=O)O)cc3)cc2cc1C12CC3CC(CC(C3)C1)C2: 113 % of DMSO
CCN(CCCCOC(=O)c1ccc(OC)c(OC)c1)C(C)Cc1ccc(OC)cc1 (stereo not drawn): 145 % of DMSO

Study 5 — organism: Sarcocystis neurona; read-out: parasite growth; concentration: 10 µM; time: 96 h; endpoint: inhibition
O=C(C1CCCCC1)N1CC(=O)N2CCc3ccccc3C2C1 (stereo not drawn): -0.565%
O=c1c(O[C@@H]2O[C@H](CO)[C@@H](O)[C@H](O)[C@H]2O)c(-c2ccc(O)c(O)c2)oc2cc(O)cc(O)c12: -11.9%
CCCC(=O)Nc1ccc(OCC(O)CNC(C)C)c(C(C)=O)c1 (stereo not drawn): -17.9%
CC(C)NCC(O)c1ccc(NS(C)(=O)=O)cc1 (stereo not drawn): -4.6%

Study 6 — technique: competition with immobilised ligand; concentration: 1 µM; endpoint: remaining binding
SMILES: O=C(O)c1cc(-c2ccc(C3CCNCC3)cc2)c2ccc(-c3ccc(C(F)(F)F)cc3)cc2c1
ERBB4 (Homo sapiens, UniProt Q15303); cell-free assay: 100%
NEK7 (Homo sapiens, UniProt Q8TDX7); cell-free assay: 100%
PKN2 (Homo sapiens, UniProt Q16513); cell-free assay: 100%
FLT3 (Homo sapiens, UniProt P36888); cell-free assay: 90%
RIOK3 (Homo sapiens, UniProt O14730); cell-free assay: 100%
FER (Homo sapiens, UniProt P16591); cell-free assay: 100%
PDGFRB (Homo sapiens, UniProt P09619); cell-free assay: 100%
MKNK1 (Homo sapiens, UniProt Q9BUB5); cell-free assay: 100%
CAMK2B (Homo sapiens, UniProt Q13554); cell-free assay: 100%
FLT3 (Homo sapiens, UniProt P36888, K663Q); cell-free assay: 100%
Tyrosine-protein kinase ABL1, phosphorylated (ABL1, Homo sapiens, UniProt P00519, Y253F); cell-free assay: 73%
Myosin-IIIb (MYO3B, Homo sapiens, UniProt Q8WXR4); binding: 69%
NEK6 (Homo sapiens, UniProt Q9HC98); cell-free assay: 100%
STK39 (Homo sapiens, UniProt Q9UEW8); cell-free assay: 100%
FLT3 (Homo sapiens, UniProt P36888, D835V); cell-free assay: 100%
FLT1 (Homo sapiens, UniProt P17948); cell-free assay: 86%
STK38L (Homo sapiens, UniProt Q9Y2H1); cell-free assay: 100%
WEE2 (Homo sapiens, UniProt P0C1S8); cell-free assay: 100%
CDK11A (Homo sapiens, UniProt Q9UQ88); binding: 100%
MAP2K6 (Homo sapiens, UniProt P52564); cell-free assay: 100%
EGFR (Homo sapiens, UniProt P00533, L858R/T790M); cell-free assay: 100%
VRK2 (Homo sapiens, UniProt Q86Y07); cell-free assay: 100%
IKBKE (Homo sapiens, UniProt Q14164); cell-free assay: 100%
RET (Homo sapiens, UniProt P07949, M918T); cell-free assay: 92%
Aurora kinase A (AURKA, Homo sapiens, UniProt O14965); cell-free assay: 100%

Study 7 — host: mouse; sample: microsomes or S9; concentration: 2 µM; time: 0.5 h; endpoint: remaining compound
O=C(c1ccccc1)c1cc(Cl)ccc1Nc1cccc2c1N(c1ncccn1)CCC2: 0.902%
N#Cc1cnc(NCC2CCN(CC(O)c3ccccc3)CC2)cn1 (stereo not drawn): 96.7%
Cn1c(/C=C2\SC(=O)NC2=O)cc2c1-c1ccccc1OC2: 5.78%

Other studies, line by line
COc1ccc(-c2c(Nc3ccccn3)[nH]c3c(C4=CCCCC4)c(-c4ccccc4)nn3c2=O)cc1
Tmax (human, plasma; oral, 150 mg once daily): 2 h

CC(C)n1cnc(-c2ccc(F)cc2)c1-c1ncc(C(=O)Nc2ccc(N3CCN(C)CC3)cc2)[nH]1
patients with Synovitis TEAE (phase 2a clinical trial; patients with idiopathic pulmonary fibrosis; 60 mg once daily): 0%
